# Assay results from different studies.
# Lines come from different studies, so protocols differ. Several values in a cell are separate wells, animals, samples, runs or records. ± gives the spread as reported.
Molecule,tested on,assay,system,setting,scale,quantity,result
semaglutide,,,"Wistar rat, male, diet-induced obese","subcutaneous, increasing doses once daily, 45 days",relative to: vehicle,cumulative food intake reduction,-19.9%
human LDL receptor,,co-immunoprecipitation,human plasma,"unit not given, with: Band 3 peptide 1-56 bait",relative to: negative control,co-IP enrichment,0
GSGAGKETEC,human SCRIB PDZ3-4 tandem (MBP fusion),automated holdup,"peptide, crude extract","concentration not given, corrected by standard peak, unit not given","relative to: biotin control resin, higher = stronger binding",binding intensity,0.785
calcium,,"ion current, two-electrode voltage clamp",Xenopus oocytes,"1.8 mM, -80 mV, with: niflumic acid present",,desensitization time constant,7.53 s and 17.6 s and 10.3 s and 14.6 s
heparin sodium,,,human,"intravenous infusion, 8 IU/kg/h, day 1 to 6",relative to: baseline,time to Emax of ACT ratio,14 h
colistin,Pseudomonas aeruginosa,,clinical isolate RKI 40/14,,,MIC,≤ 1 µg/mL
GSGAGIATEV,human SCRIB PDZ3-4 tandem (MBP fusion),automated holdup,"peptide, crude extract","concentration not given, corrected by standard peak, unit not given","relative to: biotin control resin, higher = stronger binding",binding intensity,0.849
human retinal dehydrogenase 1,,co-immunoprecipitation,human RBC membrane,"unit not given, with: Band 3 peptide 1-56 bait",relative to: negative control,co-IP enrichment,0
difelikefalin,,,Japanese haemodialysis patients with pruritus,"intravenous, 0.5 µg/kg, 8 weeks",,PGIC much worse,0%
cotadutide,,"lipidomics, measured: hepatic total Dihydroceramides","ob/ob mice on AMLN diet, NASH model, liver",dose not given,,metabolite level,0.89 ± 0.11 scaled intensity
Peginesatide,UT7/EPO,"tyrosine phosphorylation, LC-MS/MS phosphoproteomics, trypsin, measured: JAK2 tyrosine 1007",,"10 nM, 15 min, with: 10 U/mL EPO",relative to: vehicle,phosphorylation level,14.4 fold
maraviroc,,"hCD4+/hCD8+ T-cell ratio, flow cytometry","HIV-infected humanized mice, blood","ip, 120 mg/kg twice daily",relative to: untreated HIV-infected mice,HIV-induced immunosuppression,decreased
ERK2,,co-immunoprecipitation,human plasma,"no crosslinker, unit not given, with: Band 3 peptide 1-56 bait",relative to: negative control,co-IP enrichment,0

# Some of these lines once more:
Molecule,tested on,assay,system,setting,scale,quantity,result
human retinal dehydrogenase 1,,co-immunoprecipitation,human RBC membrane,"unit not given, with: Band 3 peptide 1-56 bait",relative to: negative control,co-IP enrichment,0
